Measurements from different studies.
Each line is one published result; not all experiments were run side by side. ± gives the spread as reported.

Molecule | cell line | assay | test system | conditions | how to read | quantity | value
CN(CC(=O)O)C(=O)CN | MDCKII-MDR1 | – | – | 60 min, pH 7.4 | – | Papp B-A | 12.9 ± 1.3 ×10⁻⁶ cm/s
Cc1cc(O)c(C(=O)/C=C/c2ccc(O)c(O)c2)cc1C | H4IIE | MTT | – | concentration not given, 24 h | reference: with over without cyclosporin A | difference in toxicity | 14.1%
O=C1C(Cl)=C(N2C(=O)c3ccccc3C2=O)C(=O)c2ccccc21 | BALB/c 3T3 clone A31 | cytotoxicity, MTT | – | 48 h | – | IC50 | 253.7 ± 1.87 µM
O=C1OC2(c3ccc(O)cc3Oc3cc(O)ccc32)c2ccccc21 | bovine brain microvessel endothelial cells | – | BBMEC monolayer | 10 µM, up to 60 min, apical to basolateral | – | Papp | 34.2 ×10⁻⁶ cm/s
Oc1cc2nc(c1)CNCCNCCNC2 | HT-22 | cell growth or viability, MTT | – | – | – | IC50 | 298 µM
CC1(C)C(/C=C/C=C/C=C/C=C2\N(CCCCS(=O)(=O)O)c3ccc4ccccc4c3C2(C)C)=[N+](CCCCS(=O)(=O)[O-])c2ccc3ccccc3c21 | U-87 MG | cell viability, AlamarBlue | – | 72 h in dark, 10% FBS, tested up to 80 µM | – | highest non-cytotoxic concentration | ≥ 80 µM
NC(=O)[C@H](CCCN=C(N)CCl)NC(=O)c1ccccc1 | U-87 MG | caspase-3 flow cytometry | – | 150.40 µM, 48 h | – | viable cells | 97.2 ± 0.85%
CN(C)c1cc(NC(=O)CNC(C)(C)C)c(O)c2c1C[C@H]1C[C@H]3[C@H](N(C)C)C(O)=C(C(N)=O)C(=O)[C@@]3(O)C(O)=C1C2=O | COS | cytotoxicity, resazurin | – | 10% fetal calf serum | – | TC50 | > 100 µg/mL
CC(=O)Oc1ccc(-c2cc3ccc(OC(C)=O)c(OC(C)=O)c3oc2=O)cc1 | MRC9 | cell growth or viability, crystal violet | – | 48 h | – | CC50 | 83.3 µM
Cc1cn([C@H]2C=C[C@@H](CO)O2)c(=O)[nH]c1=O | PHA-stimulated human PBM cells | cell growth, trypan blue exclusion | – | 6 d | – | IC50 | > 100 µM
NS(=O)(=O)c1ccc(Nc2nc3nccc(-c4c(F)ccc(F)c4F)n3n2)cc1 | human peripheral blood lymphocytes | cell growth, resazurin | – | 72 h, with: PHA stimulation | – | GI50 | > 10 µM
O=C1C(Cl)=C(N2C(=O)CCC2=O)C(=O)c2ccccc21 | BALB/c 3T3 clone A31 | cytotoxicity, MTT | – | 48 h | – | IC50 | 165.9 ± 1.24 µM
O=C1/C(=C/c2ccccc2)C(NC2CCCCC2)c2ccccc21 (stereo not drawn) | EA.hy926 | cell loss, nuclear condensation, propidium iodide staining | – | 6 h | – | cytotoxic concentration | > 25 µM
Telavancin | rat embryo fibroblasts | – | – | 90 mg/L, 37 °C, 10% fetal calf serum | – | uptake clearance | 8.2 ± 0.4 µL/mg protein/h
CN(C)c1cc(CNCC(C)(C)C)c(O)c2c1C[C@H]1C[C@H]3[C@H](N(C)C)C(O)=C(C(N)=O)C(=O)[C@@]3(O)C(O)=C1C2=O | COS | cytotoxicity, resazurin | – | 10% fetal calf serum | – | TC50 | > 100 µg/mL
NASC | PC-12 | CellTiter-Glo | peptide | 1 mM, 72 h, 37 °C | reference: vehicle | viability | 101 ± 1.44%
CCc1ccc2oc(-c3ccc(O)c(O)c3)c(O)c(=O)c2c1 | H4IIE | MTT | – | concentration not given, 24 h | reference: with over without cyclosporin A | difference in toxicity | 29.7%
O=c1[nH]c(=O)n([C@H]2C[C@H](O)[C@@H](CO)O2)cc1I | PHA-stimulated human PBM cells | cell growth, trypan blue exclusion | – | 6 d | – | IC50 | > 100 µM

Some of these lines once more:
Molecule | cell line | assay | test system | conditions | how to read | quantity | value
O=C1C(Cl)=C(N2C(=O)CCC2=O)C(=O)c2ccccc21 | BALB/c 3T3 clone A31 | cytotoxicity, MTT | – | 48 h | – | IC50 | 165.9 ± 1.24 µM
CCc1ccc2oc(-c3ccc(O)c(O)c3)c(O)c(=O)c2c1 | H4IIE | MTT | – | concentration not given, 24 h | reference: with over without cyclosporin A | difference in toxicity | 29.7%
